# Assay results from different studies.
# Compare with care: the assays were run in different laboratories. ± gives the spread as reported.
SMILES,test,system,setting,scale,solubility
Nc1ccn(CC2COP(=O)(OCCNC(=O)CCCCC3SCC4NC(=O)NC43)CO2)c(=O)n1 (mixture of isomers),,,,,56100 ± 1630 µg/mL
CCCC1OC2CC3C4CCC5=CC(=O)C=CC5(C)C4C(O)CC3(C)C2(C(=O)COC(=O)C(C)N)O1 (stereo not drawn),HPLC,water,"72 h, 25 °C",,0.33 g/100 g
CN(C)CCNC(=O)c1cccc2c(NCCCCc3c(N)nc(N)nc3N)c3ccccc3nc12,,"MOPS buffer, 300 mM NaCl, 1% DMSO",pH 7,,≥ 500 µM
CC(C)(C)NC(=O)[C@@H]1C[C@@H]2CCCC[C@@H]2CN1C[C@@H](OC(=O)CCC(=O)OC[C@H](O)[C@H]1OC(=O)C(O)=C1O)[C@H](Cc1ccccc1)NC(=O)[C@H](CC(N)=O)NC(=O)c1ccc2ccccc2n1,,water,25 °C,,4910 ± 400 µM
CCCCCCCCCCCCCCCCCC(=O)O[C@@H](C(=O)O[C@H]1C[C@@]2(O)[C@@H](OC(=O)c3ccccc3)[C@@H]3[C@]4(OC(C)=O)CO[C@@H]4C[C@H](O)[C@@]3(C)C(=O)[C@H](O)C(=C1C)C2(C)C)[C@@H](NC(=O)OC(C)(C)C)c1ccccc1,,BALB/c mouse plasma,"24 h, room temperature",,57.5 ± 2.6 µg/mL
NS(=O)(=O)c1ccc(C(=O)N[C@@H]2OC[C@@H](O)[C@H](O)[C@H]2O)cc1,,water,,,1%
CC(C)=CCC[C@](C)(O)[C@H]1CC[C@]2(C)[C@@H]1[C@H](O)C[C@@H]1[C@@]3(C)CC[C@H](O)C(C)(C)[C@@H]3CC[C@]12C,,Capmul MCM EP,"72 h, 25 °C",,10600 ± 1440 µg/mL
Nc1ccn(CC2COP(=O)(OCCCCCCCCCCCCNC(=O)CCCCC3SCC4NC(=O)NC43)CO2)c(=O)n1 (mixture of isomers),,,,,13200 ± 980 µg/mL
C[C@@H]1O[C@H](NC(=O)c2ccc(S(N)(=O)=O)cc2)[C@H](O)[C@H](O)[C@H]1O,,water,,,1%
C[N+]1(CC(=O)OC2CCCCCCCCCCC2)CCCCC1,,aqueous buffer,pH 7.4,,171 µM
CN(C)C(=S)[S][Pd][c]1ccccc1C(=O)N=P12CN3CN(CN(C3)C1)C2,,DMSO:water 1:99,,,700 µM
C=C(c1ncc(C(=O)O)cn1)c1cc2c(cc1C)C(C)(C)CCC2(C)C,,deionized water,"24 h, 20 °C",,49 ± 1 µM
CCCCCCCCCCCCCCCCCCCCCC(=O)O[C@@H](C(=O)O[C@H]1C[C@@]2(O)[C@@H](OC(=O)c3ccccc3)[C@@H]3[C@]4(OC(C)=O)CO[C@@H]4C[C@H](O)[C@@]3(C)C(=O)[C@H](O)C(=C1C)C2(C)C)[C@@H](NC(=O)OC(C)(C)C)c1ccccc1,,BALB/c mouse plasma,"24 h, room temperature",,34.4 ± 0.6 µg/mL
CC(C)(O)Cn1cc(-c2ccc3nc(OC(F)F)ccc3c2)c2c(N)ncnc21,,,pH 2,,98.2 µM
CCCCCCCCCCCC(=O)O[C@@H](C(=O)O[C@H]1C[C@@]2(O)[C@@H](OC(=O)c3ccccc3)[C@@H]3[C@]4(OC(C)=O)CO[C@@H]4C[C@H](O)[C@@]3(C)C(=O)[C@H](O)C(=C1C)C2(C)C)[C@@H](NC(=O)OC(C)(C)C)c1ccccc1,,Miglyol 808,"24 h, room temperature",,523000 ± 18200 µg/mL
CSCC[C@H](NC(=O)[C@H](CCCCN)NC(=O)[C@H](CO)NC(=O)[C@H](CC(C)C)NC(=O)[C@H](Cc1c[nH]cn1)NC(=O)[C@H](CCCNC(=N)N)NC(=O)[C@H](CCC(=O)O)NC(=O)[C@H](CCC(=O)O)NC(=O)[C@@H]1CCCN1C(=O)[C@@H](NC(=O)[C@@H](NC(=O)[C@H](C)NC(=O)[C@H](C)NC(=O)[C@H](CC(=O)O)NC(=O)[C@@H](NC(=O)[C@H](CCC(=O)O)NC(=O)[C@@H](NC(=O)[C@@H](NC(=O)CN)C(C)C)C(C)C)C(C)C)C(C)C)[C@@H](C)OP(=O)(O)O)C(=O)N[C@@H](CCC(N)=O)C(=O)N[C@@H](CCC(N)=O)C(=O)N[C@@H](CC(N)=O)C(=O)NCC(=O)N[C@@H](Cc1ccc(O)cc1)C(=O)O,,HEPES buffer with DTT,pH 6.9,lower limit,≥ 10000 µM
COc1cc(Cc2cnc(N)nc2N)cc(OC)c1OC.O=c1[nH]cc(F)c(=O)[nH]1,shake flask,dilute hydrochloric acid,"pH 1.2, room temperature",,12900 µg/mL
NS(=O)(=O)c1ccc(C(=O)N[C@@H]2O[C@H](CO)[C@@H](O)[C@H](O)[C@H]2O)cc1,,water,,,1%
C=C(c1cc(F)c(C(=O)O)c(F)c1)c1cc2c(cc1C)C(C)(C)CCC2(C)C,,deionized water,"24 h, 20 °C",,58 ± 1 µM
CCCC1OC2CC3C4CCC5=CC(=O)C=CC5(C)C4C(O)CC3(C)C2(C(=O)COC(=O)CN)O1 (stereo not drawn),HPLC,water,"72 h, 25 °C",,0.402 g/100 g
O=C(O)c1ccc(/C=C2\SC(=S)N(Cc3cccc(C(F)(F)F)c3)C2=O)cc1,,DMA:EL:HP-β-CD vehicle,"pH 7.4, ratio 5:5:90, 10% w/v",,1000 µg/mL
COc1cc(-c2nc3ccc(C(=O)NCCCN(C)C)cc3n2C2CCC2)cc(OC)c1OC,dynamic solubility,,,,200 µM
Cc1cc2c(c(=O)o1)C=C1CCC(C(C)CNCc3ccc(O)cc3)CC1O2 (stereo not drawn),,water,,,≤ 720 µM
COc1ccc(-c2cc(C(F)(F)F)nc(S(=O)(=O)CCC(=O)Nc3ccc(C)cc3)n2)cc1,,aqueous buffer,150 µM nominal,,~17 µM
O=c1nc(N2CCC(Oc3ccccc3F)CC2)sc2c([N+](=O)[O-])cc(C(F)(F)F)cc12,,water,37 °C,,0.5 µg/mL
CC[C@H](C)[C@H](NC(=O)[C@H](CC(C)C)NC(=O)[C@H](Cc1c[nH]cn1)NC(=O)[C@H](Cc1c[nH]cn1)NC(=O)[C@H](CC(C)C)NC(=O)[C@H](Cc1c[nH]c2ccccc12)NC(=O)[C@H](Cc1ccccc1)NC(=O)[C@H](CCCNC(=N)N)NC(=O)[C@H](CCCNC(=N)N)NC(=O)[C@H](CCCNC(=N)N)NC(=O)[C@H](CC(C)C)NC(=O)[C@H](CC(=O)O)NC(=O)[C@H](CCC(N)=O)NC(=O)[C@@H](NC(=O)[C@H](CO)NC(=O)[C@H](CCCCN)NC(=O)[C@@H](Cc1c[nH]c2ccccc12)NC(=O)[C@H](CC(C)C)NC(=O)[C@H](CC(=O)O)NC(=O)[C@H](Cc1c[nH]cn1)NC(=O)[C@H](CC(C)C)NC(=O)[C@@H](N)CC(C)C)[C@@H](C)CC)C(=O)N[C@@H](C)C(=O)N[C@@H](CCC(=O)O)C(=O)N[C@H](C(=O)N[C@@H](Cc1c[nH]cn1)C(=O)N[C@H](C(=O)N[C@@H](C)C(=O)N[C@@H](CCC(=O)O)C(=O)N[C@@H](Cc1ccc(O)cc1)C(N)=O)[C@@H](C)O)[C@@H](C)CC,,saline citrate Tween 80,pH 5.0,,~7000 µg/mL
NS(=O)(=O)NCC(F)(F)c1ccccc1F,shake-flask,water,pH 9.2,,9200 µg/mL
COc1ccc2ccc3c(c2c1)C=[N+]1C2CCCCC2[N+]2=Cc4cccc(OC)c4[O][Au-]21[O]3.F[P-](F)(F)(F)(F)F (stereo not drawn),,PBS-DMF,pH 7.4,,54.7 µM
O=S(=O)(O)c1cc(O)c(O)c(S(=O)(=O)O)c1,UV-vis spectroscopy,1 M H2SO4 with 20 wt% sodium xylenesulfonate,,,30000 ± 50000 µM
COC(=O)[C@H]1O[C@@H](NC(=O)c2ccc(S(N)(=O)=O)cc2)[C@H](O)[C@@H](O)[C@@H]1O,,water,,,1%
O=C1c2ccc(S(=O)(=O)O)cc2C(=O)c2cc(S(=O)(=O)O)ccc21,UV-vis spectroscopy,1 M H2SO4 without hydrotrope,pH 0,,830000 ± 30000 µM
CC(=O)C=C(C)[O][Pd][c]1ccccc1C(=O)N=P12CN3CN(CN(C3)C1)C2,,DMSO:water 1:99,,,800 µM
CC(=Nc1ccccc1)c1c(C)cc(=O)n(O)c1O,,,pH 1.6,,≥ 200 µM
